Measured values of several laboratories.
Parts stem from different laboratories: compare values within a part only.
UniProt P42336, sequence (whole entry, unmodified, looked up): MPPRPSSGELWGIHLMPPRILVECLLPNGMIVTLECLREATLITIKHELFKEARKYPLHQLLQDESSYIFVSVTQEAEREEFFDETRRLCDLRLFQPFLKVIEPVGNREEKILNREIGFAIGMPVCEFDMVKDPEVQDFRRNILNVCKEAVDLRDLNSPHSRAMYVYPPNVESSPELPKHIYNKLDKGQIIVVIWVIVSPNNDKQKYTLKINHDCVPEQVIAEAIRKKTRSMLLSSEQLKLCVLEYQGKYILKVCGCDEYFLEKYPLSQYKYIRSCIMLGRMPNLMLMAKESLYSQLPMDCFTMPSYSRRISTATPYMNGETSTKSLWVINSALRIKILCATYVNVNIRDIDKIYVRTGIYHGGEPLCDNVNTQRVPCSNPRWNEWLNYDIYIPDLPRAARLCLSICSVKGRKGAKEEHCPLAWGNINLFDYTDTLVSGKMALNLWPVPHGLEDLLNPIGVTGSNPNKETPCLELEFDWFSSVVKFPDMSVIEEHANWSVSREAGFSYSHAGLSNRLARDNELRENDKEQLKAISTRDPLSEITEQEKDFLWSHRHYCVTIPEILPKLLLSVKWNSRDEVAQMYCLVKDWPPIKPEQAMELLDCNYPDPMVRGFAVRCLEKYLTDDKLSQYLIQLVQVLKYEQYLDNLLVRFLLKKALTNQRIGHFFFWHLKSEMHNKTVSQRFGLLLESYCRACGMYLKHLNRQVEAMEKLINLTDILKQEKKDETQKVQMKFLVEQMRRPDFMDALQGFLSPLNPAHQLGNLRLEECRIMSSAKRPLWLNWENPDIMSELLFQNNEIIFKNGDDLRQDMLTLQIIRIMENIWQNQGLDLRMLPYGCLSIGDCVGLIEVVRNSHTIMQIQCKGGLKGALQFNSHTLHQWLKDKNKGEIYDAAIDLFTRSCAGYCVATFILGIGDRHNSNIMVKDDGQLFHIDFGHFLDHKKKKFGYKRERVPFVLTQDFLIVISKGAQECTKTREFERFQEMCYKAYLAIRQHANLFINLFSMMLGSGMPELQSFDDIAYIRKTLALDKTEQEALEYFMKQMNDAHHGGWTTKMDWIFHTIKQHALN
UniProt Q16620, sequence (whole entry, looked up): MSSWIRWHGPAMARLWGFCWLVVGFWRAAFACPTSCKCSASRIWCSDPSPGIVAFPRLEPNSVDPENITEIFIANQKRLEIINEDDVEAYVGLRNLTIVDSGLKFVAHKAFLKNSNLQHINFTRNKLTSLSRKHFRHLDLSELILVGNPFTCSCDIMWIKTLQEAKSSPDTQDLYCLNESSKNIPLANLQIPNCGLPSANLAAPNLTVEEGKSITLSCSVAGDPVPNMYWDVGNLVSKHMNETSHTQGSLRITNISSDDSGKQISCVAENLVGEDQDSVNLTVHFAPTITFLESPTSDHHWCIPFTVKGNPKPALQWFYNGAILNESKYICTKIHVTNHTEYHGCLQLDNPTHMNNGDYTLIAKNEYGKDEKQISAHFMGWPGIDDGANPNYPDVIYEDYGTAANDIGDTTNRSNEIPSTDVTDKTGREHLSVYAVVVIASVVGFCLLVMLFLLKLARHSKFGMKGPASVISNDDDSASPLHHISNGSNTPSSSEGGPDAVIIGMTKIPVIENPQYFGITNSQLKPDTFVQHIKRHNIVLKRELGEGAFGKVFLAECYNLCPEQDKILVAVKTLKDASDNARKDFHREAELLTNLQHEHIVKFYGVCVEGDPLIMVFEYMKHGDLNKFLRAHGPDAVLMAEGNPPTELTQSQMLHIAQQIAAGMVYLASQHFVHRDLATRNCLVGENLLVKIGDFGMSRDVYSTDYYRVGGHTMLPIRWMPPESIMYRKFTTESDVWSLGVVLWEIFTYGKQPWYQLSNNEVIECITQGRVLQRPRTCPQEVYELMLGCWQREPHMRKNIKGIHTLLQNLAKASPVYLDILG
UniProt Q8TDC3, sequence (whole entry, looked up): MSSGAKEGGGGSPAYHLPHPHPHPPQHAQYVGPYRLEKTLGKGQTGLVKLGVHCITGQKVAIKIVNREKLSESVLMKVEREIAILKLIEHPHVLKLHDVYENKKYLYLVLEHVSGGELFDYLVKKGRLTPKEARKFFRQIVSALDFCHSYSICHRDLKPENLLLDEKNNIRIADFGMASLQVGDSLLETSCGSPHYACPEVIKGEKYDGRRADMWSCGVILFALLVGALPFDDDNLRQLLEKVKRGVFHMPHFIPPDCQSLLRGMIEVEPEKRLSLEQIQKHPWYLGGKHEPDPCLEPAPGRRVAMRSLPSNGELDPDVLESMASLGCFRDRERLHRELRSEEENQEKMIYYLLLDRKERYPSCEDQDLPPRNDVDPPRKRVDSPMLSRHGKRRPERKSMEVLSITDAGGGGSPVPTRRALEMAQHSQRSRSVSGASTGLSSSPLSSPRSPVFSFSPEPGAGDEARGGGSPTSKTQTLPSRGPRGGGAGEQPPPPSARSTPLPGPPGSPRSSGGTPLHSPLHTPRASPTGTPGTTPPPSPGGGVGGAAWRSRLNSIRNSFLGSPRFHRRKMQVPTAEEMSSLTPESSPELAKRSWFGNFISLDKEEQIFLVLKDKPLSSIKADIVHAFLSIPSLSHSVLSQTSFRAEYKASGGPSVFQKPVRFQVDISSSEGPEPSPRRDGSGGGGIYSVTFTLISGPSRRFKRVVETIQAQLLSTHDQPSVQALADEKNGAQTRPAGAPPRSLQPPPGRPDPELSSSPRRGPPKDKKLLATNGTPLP

Series 1
Target: Interferon regulatory factor 5, full length, phosphomimetic (IRF5, Homo sapiens, UniProt Q13568-2, residues 1-514, K96S/S451D/S453D/S456D/S462D)
Method: protein-binding microarray
Molecule type: double-stranded DNA, one strand shown
Sample: in vitro
Concentration: 250 nM
Setting: 60-bp whole probe
Added: salmon DNA 0.4 mg/ml
Relative to: random background probes
Direction: higher = stronger binding
Constant ends, left off below: GCCTAGCAC … GTCTTGATTCGCTTGACGCTGCTG
For `GACTATTTCGGGACTGGAGACGTGCTA`, the log fluorescence was 1.93 z-score.
For `TTAGATCTCAGTTTCGATTTGTGCTAG`, the log fluorescence was 9.37 z-score.
For `TCAGGACTCAGGTCTCCCACTGTGCTA`, the log fluorescence was -0.293 z-score.
`AGTGTCTCCATCAGAGGAGAGTGCTAG` gave a log fluorescence of -0.302 z-score.
For `TTAGGTCTCCTTACCCTTTAGTGCTAG`, the log fluorescence was -0.403 z-score.
`TTAGGTTTCCTACGGCTTTAGTGCTAG` gave a log fluorescence of 0.213 z-score.
For `TCATCTCCCAGACTGGAGTGGTGCTAG`, the log fluorescence was -0.376 z-score.
The log fluorescence of `CACCACATTTTTTTCATTATGTGCTAG` is reported as 1.45 z-score.

Series 2
Target: UBE2E3 UBC core domain (UniProt Q969T4)
UniProt Q969T4, sequence (whole entry, looked up): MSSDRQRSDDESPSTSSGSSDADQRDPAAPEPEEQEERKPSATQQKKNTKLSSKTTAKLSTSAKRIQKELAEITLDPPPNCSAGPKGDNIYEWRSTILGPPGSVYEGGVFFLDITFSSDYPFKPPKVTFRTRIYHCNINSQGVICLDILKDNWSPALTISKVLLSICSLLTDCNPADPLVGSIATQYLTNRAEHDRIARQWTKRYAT
Method: yeast two-hybrid
Sample: yeast
Setting: mostly zero background
Relative to: not given
Direction: higher = stronger interaction
B1: RNF166 RING domain (UniProt Q96A37); chain GDSGLEAQYTCPICLEVYHRPVAIGSCGHTFCGECLQPCLQVPSPLCPLCRLPFDPKKVDK
B2: MEX3B RING domain (UniProt Q6ZN04); chain SGLRRKGSRDCSVCFESEVIAALVPCGHNLFCMECANRICEKSEPECPVCHTAVTQAIRIF
B3: RNF2 RING domain (UniProt Q99496); chain SPRSLHSELMCPICLDMLKNTMTTKECLHRFCADCIITALRSGNKECPTCRKKLVSKRSLR
B4: TRIM37 RING domain (UniProt O94972); chain SVESIAEVFRCFICMEKLRDARLCPHCSKLCCFSCIRRWLTEQRAQCPHCRAPLQLRELVN
B5: TRIM54 RING domain (UniProt Q9BYV2); chain SMDNLEKQLICPICLEMFSKPVVILPCQHNLCRKCANDVFQASNPLWQSRGSTTVSSGGRFRCPSCRHEVVLDRHGV
B6: RNF183 RING domain (UniProt Q96D59); chain EQQGRELEAECPVCWNPFNNTFHTPKMLDCCHSFCVECLAHLSLVTPARRRLLCPLCRQPTVLASGQP
Under “lacZ reporter activity”, `B1 (RNF166 RING domain)` is recorded as 0.
`AEADPLGRFTCPVCLEVYEKPVQVPCGHVFCSACLQECLKPKKPVCGVCRSALAPGVRAV (RNF114 RING domain (UniProt Q9Y508))`: “lacZ reporter activity” 0.
For `B2 (MEX3B RING domain)`, “lacZ reporter activity” read 0.
For `B3 (RNF2 RING domain)`, “lacZ reporter activity” read 0.
For `B4 (TRIM37 RING domain)`, “lacZ reporter activity” read 0.
Under “lacZ reporter activity”, `B5 (TRIM54 RING domain)` is recorded as 0.
`PEELAVNNDDCAICWDSMQAARKLPCGHLFHNSCLRSWLEQDTSCPTCRMSLNIADNNR (AMFR RING domain (UniProt Q9UKV5))` — result for “lacZ reporter activity”: 0.
For `B6 (RNF183 RING domain)`, “lacZ reporter activity” read 0.

Series 3
Compound: Cc1cc(NC(=O)c2cccc(S(F)(F)(F)(F)F)c2)cc(-n2ccn3nc(-c4cccnc4)cc23)c1
Effect on: cell-free assay
Method: competition with immobilised ligand
Concentration: 1 µM
The remaining binding was 22.9% (PIK3CA (Homo sapiens, UniProt P42336, H1047Y)).
For EGFR (Homo sapiens, UniProt P00533, L861Q): remaining binding read 98.2%.
For BRSK1 (Homo sapiens, UniProt Q8TDC3): remaining binding read 100%.
It gave 100% for remaining binding (PKN1 (Homo sapiens, UniProt Q16512)).
NTRK2 (Homo sapiens, UniProt Q16620) — remaining binding: 40%.

Series 4
Target: Mitogen-activated protein kinase kinase kinase 8 (MAP3K8, Homo sapiens, UniProt P41279)
UniProt P41279, sequence (whole entry, looked up): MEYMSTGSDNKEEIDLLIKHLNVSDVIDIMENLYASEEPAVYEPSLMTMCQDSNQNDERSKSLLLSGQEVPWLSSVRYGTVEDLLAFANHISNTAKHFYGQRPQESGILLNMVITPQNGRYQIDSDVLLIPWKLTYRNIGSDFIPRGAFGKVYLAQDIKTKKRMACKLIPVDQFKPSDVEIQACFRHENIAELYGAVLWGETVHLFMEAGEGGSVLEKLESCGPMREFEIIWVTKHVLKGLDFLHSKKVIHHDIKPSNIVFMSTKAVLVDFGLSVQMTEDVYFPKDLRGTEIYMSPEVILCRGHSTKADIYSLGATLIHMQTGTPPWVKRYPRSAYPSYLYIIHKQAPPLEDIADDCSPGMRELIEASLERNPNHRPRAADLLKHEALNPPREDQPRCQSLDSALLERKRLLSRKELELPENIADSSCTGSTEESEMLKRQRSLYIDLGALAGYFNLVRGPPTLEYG
Effect on: enzyme activity
Mode: inhibitor
Concentration: 0.5 µM
Relative to: control
For `N#CC(c1ccnc(NCCc2cccnc2)n1)c1nc2ccccc2s1` (stereo not drawn), the remaining activity was 96%.
For `C[C@@H](N)[C@H]1CC[C@H](C(=O)Nc2ccncc2)CC1`, the remaining activity was 98.4%.
For `CCCCc1c(-c2ccc(OC)cc2)[nH]c2nccnc12`, the remaining activity was 98.2%.
`NC(=O)c1cccc(-c2cc(Nc3ccc(OC(F)(F)F)cc3)ncn2)c1` gave a remaining activity of 96.8%.
The remaining activity of `Cc1cc(Nc2cc(N3CCN(C)CC3)nc(Sc3ccc(NC(=O)C4CC4)cc3)n2)[nH]n1` is reported as 115%.
`O=C1NC(=O)c2c1c1c3ccccc3[nH]c1n1cncc21` has a remaining activity of 100%.
`CC(C)n1cnc2c(Nc3cccc(Cl)c3)nc(NCCO)nc21` gave a remaining activity of 92.2%.
For `O=C1c2ccccc2-c2nc3nnnn3nc21`, the remaining activity was 75.9%.
The remaining activity of `FC(F)(F)c1ccc(/C=C/c2nc(COc3ccc(CCCCn4ccnn4)cc3)co2)cc1` is reported as 90.8%.
The remaining activity of `O=C1Nc2ccccc2/C1=C\c1c(Cl)[nH]c2ccccc12` is reported as 94.3%.
The remaining activity of `Oc1cccc(-c2nc(N3CCOCC3)c3oc4ncccc4c3n2)c1` is reported as 99.2%.
`O=C1NC(=O)/C(=C/c2ccc3c(c2)OC(F)(F)O3)S1` has a remaining activity of 93%.
For `NC(=O)c1ccc(-c2nc(-c3ccc4c(c3)OCCO4)c(-c3ccccn3)[nH]2)cc1`, the remaining activity was 103%.
With `CN(C)S(=O)(=O)c1ccc2c(c1)/C(=C/c1cc3c([nH]1)CCCC3)C(=O)N2` the remaining activity was 94.6%.
`O=c1cc(N2CCOCC2)oc2c(-c3ccccc3)cccc12` gave a remaining activity of 98.2%.
`O=C(c1ccccc1)c1ccc(N2CCOCC2)cc1O` has a remaining activity of 99.6%.
For `O=c1c(-c2ccc(F)cc2)c(-c2ccncc2)[nH]n1-c1ccc(Cl)cc1`, the remaining activity was 87.1%.
`CCN(CC)CCCCN1c2ccccc2Oc2ccc(Cl)cc21` gave a remaining activity of 94.7%.

For quick reference, copied from above (series 2):
`AEADPLGRFTCPVCLEVYEKPVQVPCGHVFCSACLQECLKPKKPVCGVCRSALAPGVRAV (RNF114 RING domain (UniProt Q9Y508))`: “lacZ reporter activity” 0.
For `B2 (MEX3B RING domain)`, “lacZ reporter activity” read 0.
For `B3 (RNF2 RING domain)`, “lacZ reporter activity” read 0.
For `B4 (TRIM37 RING domain)`, “lacZ reporter activity” read 0.
Under “lacZ reporter activity”, `B5 (TRIM54 RING domain)` is recorded as 0.
`PEELAVNNDDCAICWDSMQAARKLPCGHLFHNSCLRSWLEQDTSCPTCRMSLNIADNNR (AMFR RING domain (UniProt Q9UKV5))` — result for “lacZ reporter activity”: 0.
